# Experimental data of several laboratories.
# Each numbered part is a random draw from the data of one study; scales do not carry over between parts.

# Series 1
# Target: Replicase polyprotein 1ab, main protease (rep, Severe acute respiratory syndrome coronavirus 2, UniProt P0DTD1)
# Effect on: enzyme activity
# Mode: inhibitor
# Concentration: 20 µM
# Setting: hit confirmation, with DTT
Structure (SMILES),inhibition [%]
C=CC(=O)c1ccc2ccccc2c1,-11.8
NC(Cc1cc(O)c(O)cc1O)C(=O)O (racemic),70
COc1cc(N(C)C)cc(CN(C)CCc2ccc([N+](=O)[O-])cc2)c1O,90.8
C[C@@H]1O[C@@H](Oc2c(-c3cc(O)c(O)c(O)c3)oc3cc(O)cc(O)c3c2=O)[C@@H](O)[C@H](O)[C@H]1O,-10.3

# Series 2
# Target: RNA binding protein fox-1 homolog 2, RRM domain, GST-SBP tag (RBFOX2, Homo sapiens, UniProt O43251-10, residues 100-194)
# Technique: RNA Bind-n-Seq
# Form: RNA
# Medium: in vitro
# Concentration: 365 nM
# Setting: natural RNA segment, single round, ends assumed
# Baseline: no-protein control
# Direction: higher = stronger binding
# Shared flanks, not repeated: GGGAGUUCUACAGUCCGACGAUC … UGGAAUUCUCGGGUGCCAA
# Target sequence (chain): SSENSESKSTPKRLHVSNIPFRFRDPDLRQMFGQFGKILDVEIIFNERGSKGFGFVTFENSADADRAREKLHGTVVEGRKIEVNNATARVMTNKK
Sequence,RBNS enrichment (R)
GGUUCAUCAGAAUGGGCGUGUCUGCCUUCACAGUGCUGUCCUAAGUAAAUAAAGGGAUUGGUGAAGACGUCUCAGACUUUUUUUUUUAAGGAGUUCUCGGGGUGGAGGGA,0.981
CUGUUGUUUAGCUUACCUUUCUGCUAGGAUUGGCUUCCCGCAGAGGGCAGGGCCCAUCCUAAGCAGCUUCCAAGUCCCACAAAGGUGGCUUGUGGGAGGAUUUGGAAGGA,0.762
UGUAACAUUGGCCUUUUCAUGGCUCCACACUGGGUGGAACCAUAUUCUCUUAGAUCACAUUUAGUAGCAUAACUGUAGGGACUAUUAGAGAUGGCAUCUCAUCGAUGAGA,0.433
AUAAACCUUCAUAUUCUGUCUGUCUCUGUUUGGUUUUGUUUUUAAUAUAGUGUGCCAAUUUUGUGACUGUAAUCAUGUGAAAGCCCCAUUGAACCGAAGAAUUAUGUCUG,6.71
ACUAUCCACAGAUAUAGCCAAGUAGAUUUGGGUAGAGGAUACUAUUUCCAGAAUAGUGUUUAGCUCACCUAGGGGGAUAUGUUUGUAUACACAUUUGCAUAUACCCACAU,0.292
UCCCCACGAAUGGGAAAGCACGUUAGUGGGAGGGACGUAGGACACGUGUGGACCGCCAGGCCCUCUCAGUCCAUUUUCCGGGGCUGCUCGGUGCUGCUGUUAAGACGUGA,0.696
AUGUUAUAUUUUUUUUUAAAAAUAACUCUGAGUAGGGGUACCACUGAAUCUGUACAGAGCCGUACAAACCGAAGUUCUGCCUCUGAUGUACUUUGUGAAUUUGUUUCUUU,0.474
UUCCUCUUCCUUCUCUACUCAUGCCAGAUUUUGGGAUUACAAAUAGAAGCUUCUUGCUCCUGUUUAACUCCCUAGUUACCCACCCUAAUUUGCCCUUCAGGACCCUUCUA,0.778

# Series 3
# Target: Replicase polyprotein 1ab, nsp13 helicase (rep, Severe acute respiratory syndrome coronavirus 2, UniProt P0DTD1)
# Mode: inhibitor
# Concentration: 20 µM
SMILES,inhibition [%]
Cc1ccc(-c2n[nH]c3c2C(c2cccc(O)c2)N(c2ccc(C(=O)O)cc2)C3=O)cc1 (stereo not drawn),20.5
O=C1[C@H](Cc2ccc(O)cc2)N2C(=O)CCN(C(=O)NCc3ccccc3)[C@H]2CN1Cc1cccc2ccccc12,9.12
c1ccc(Oc2cccnc2)cc1,-6.67
Cc1ccc(S(=O)(=O)c2ccc([N+](=O)[O-])o2)cc1,68.2
C[C@@H]1CC[C@@]2(OC1)O[C@H]1C[C@H]3[C@@H]4CC=C5C[C@@H](O)CC[C@]5(C)[C@H]4CC[C@]3(C)[C@H]1[C@@H]2C,2.68
FC(F)(F)c1ccc(N2CCNCC2)nc1Cl,10.8
CC[C@@H](CO)NC(=O)[C@@H]1C=C2c3cccc4c3c(cn4C)C[C@H]2N(C)C1,29.2
COC(=O)C(c1ccccc1)C1CCCCN1 (stereo not drawn),3.03
O=C(Nc1cccc(Cl)c1)Nc1ncc(CCNc2ncnc3ccsc23)s1,7.5
CC(C)Cn1cnc2c1c(=O)n(C)c(=O)n2C,-7.64
CCCNC(C)C(=O)Nc1ccccc1C (stereo not drawn),8.29
O=[N+]([O-])c1cc([N+](=O)[O-])c(/C=C/c2ccc(Cl)c(Cl)c2)cc1/C=C/c1ccc(Cl)c(Cl)c1,0.71
Cc1cccc(C)c1OCC(=O)N[C@@H](Cc1ccccc1)[C@@H](O)C[C@H](Cc1ccccc1)NC(=O)[C@H](C(C)C)N1CCCNC1=O,10.8
CCCCN1CCC(CCC(=O)c2cc(Cl)c(N)cc2OC)CC1,2.82
O=C1c2ccccc2S(=O)(=O)N1CCCCN1CCN(c2ncccn2)CC1,0.09
CC(O)Cn1cnc2c1c(=O)n(C)c(=O)n2C (stereo not drawn),3.81
Nc1ncnc2c1ncn2[C@@H]1O[C@H](COP(=O)(O)O)[C@@H](O)[C@H]1O,0.47
O=C(O)c1ccc2cc(-c3ccc(O)c(C45CC6CC(CC(C6)C4)C5)c3)ccc2c1,2.67
O=C(NCc1cccc(O)c1)Nc1nc(-c2ccncc2)cs1,-5.58
C[N+]1(C)[C@@H]2C[C@@H](OC(=O)C(O)(c3cccs3)c3cccs3)C[C@H]1[C@@H]1O[C@@H]12,-1.78
CCCC[C@@H](NC(=O)[C@@H](Cc1cn(C(=O)OC)c2ccccc12)NC(=O)[C@H](CC(C)(C)C)NC(=O)N1[C@H](C)CCC[C@@H]1C)C(=O)O,3.55
C=CCNc1nc(NCC=C)nc(N2CCN(C(c3ccc(F)cc3)c3ccc(F)cc3)CC2)n1,1.48
C[C@@H]1C/C=C/C=C/C=C/C=C/[C@H](O[C@@H]2O[C@H](C)[C@@H](O)[C@H](N)[C@@H]2O)C[C@@H]2O[C@](O)(C[C@@H](O)C[C@H]3O[C@@H]3/C=C/C(=O)O1)C[C@H](O)[C@H]2C(=O)O,9.87
N#Cc1ccc(-c2csc(NN=C3CCCC3)n2)cc1,0.34
CN1C2=CC(=O)/C(=N\NC(N)=O)C=C2CC1S(=O)(=O)O (stereo not drawn),1.2

# Series 4
# Target: Ras GTPase-activating protein-binding protein 1, C-terminal RGG region (G3BP1, Homo sapiens, UniProt Q13283)
# Sequence of UniProt Q13283 (whole entry, looked up): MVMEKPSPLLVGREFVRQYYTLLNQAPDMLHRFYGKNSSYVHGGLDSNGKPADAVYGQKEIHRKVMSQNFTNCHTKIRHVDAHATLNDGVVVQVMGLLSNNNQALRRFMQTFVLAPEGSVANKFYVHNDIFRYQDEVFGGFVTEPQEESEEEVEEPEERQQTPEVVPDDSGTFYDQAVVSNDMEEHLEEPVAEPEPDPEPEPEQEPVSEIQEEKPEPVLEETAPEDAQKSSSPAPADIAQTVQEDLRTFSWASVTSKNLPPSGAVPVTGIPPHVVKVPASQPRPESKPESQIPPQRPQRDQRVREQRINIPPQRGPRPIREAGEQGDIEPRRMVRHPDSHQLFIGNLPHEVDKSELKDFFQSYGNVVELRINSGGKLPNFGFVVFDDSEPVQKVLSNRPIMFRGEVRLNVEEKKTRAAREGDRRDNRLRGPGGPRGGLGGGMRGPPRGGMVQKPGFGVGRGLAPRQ
# Technique: RNA Bind-n-Seq
# Form: RNA
# Medium: in vitro
# Concentration: 1 µM
# Setting: whole 134-nt RNA, ends assumed
# With: 150 mM KCl
# Baseline: input library
# Direction: higher = stronger binding
# Shared flanks, not repeated: GGGAGUUCUACAGUCCGACGAUC … UGGAAUUCUCGGGUGUCAAGG
Sequence,log2 enrichment
CUGUGCUACACAUCGUAUGUACCGAAUCGGGGAAAAAAAGGGGAAAAAGGGGUUUUUGGGGAAAGUAUUAUGUUACGCCGUUCGGAUCUG,0.84
ACCAUGUAGGUGGGCAUCUUUGGGAAGUGGGGCAAGGGGGGGAUAGGGAGGGGGGUAACACUUUGGGAACAGGUGGUCCCAGGUCGUUUC,-0.833
CUGUGCUACACAUCGUAUGUACCGAAUCGGGAAAAAAAGGGGAAAAAAAGGGGAAAAAAAGGAAAGUAUUAUGUUACGCCGUUCGGAUCU,-1.11
AAGUCCUGUGCUACACAUCGUAUGUACCGAAUCGGGUUUGGGGUUUGGGUUUGGGGAAAGUAUUAUGUUACGCCGUUCGGAUCUGCACUU,1.88
CUCAAGUCCUGUGCUACACAUCGUAUGUACCGAAUCGGGGAAGGAAGGAAGGGAAAGUAUUAUGUUACGCCGUUCGGAUCUGCACUUCCA,-1.11
AAGUCCUGUGCUACACAUCGUAUGUACCGAAUCGGGUUUUGGGUUUUGGGUUUUGGAAAGUAUUAUGUUACGCCGUUCGGAUCUGCACUU,-1.17
UCAAGUCCUGUGCUACACAUCGUAUGUACCGAAUCGGGAAGGAAGGGGAAGGGGAAAGUAUUAUGUUACGCCGUUCGGAUCUGCACUUCC,1.14
UUAAGAAUAUUUAGAUAUUUGUAAAAGAAUUUGAAUGAUUUAUUUAAUAUAACGUUUAUUUUAUUAGCUCUAUUCCAAUUGAUUACAACC,-2.09

# Series 5
# Cell line: HEK-293T/ACE2
# Concentration: 10 µM
# Time: 16 h
# Baseline: vehicle
Compound,viability [%]
Nc1nc(O)c2ncn(COC(CO)CO)c2n1,100
OCCN1C[C@H](O)[C@@H](O)[C@H](O)[C@H]1CO,101
Nc1nc2c(ncn2COCCO)c(=O)[nH]1,101
C[C@]12C=CC(=O)C=C1CC[C@@H]1[C@@H]2[C@@H](O)C[C@@]2(C)[C@H]1CC[C@]2(O)C(=O)CO,103

# Series 6
# Target: Interferon regulatory factor 7, full length, phosphomimetic (IRF7, Homo sapiens, UniProt Q92985, residues 1-503, S471D/S472D/S475D/S476D/S477D/S483D/S484D/S487D)
# Sequence of UniProt Q92985 (whole entry, unmodified, looked up): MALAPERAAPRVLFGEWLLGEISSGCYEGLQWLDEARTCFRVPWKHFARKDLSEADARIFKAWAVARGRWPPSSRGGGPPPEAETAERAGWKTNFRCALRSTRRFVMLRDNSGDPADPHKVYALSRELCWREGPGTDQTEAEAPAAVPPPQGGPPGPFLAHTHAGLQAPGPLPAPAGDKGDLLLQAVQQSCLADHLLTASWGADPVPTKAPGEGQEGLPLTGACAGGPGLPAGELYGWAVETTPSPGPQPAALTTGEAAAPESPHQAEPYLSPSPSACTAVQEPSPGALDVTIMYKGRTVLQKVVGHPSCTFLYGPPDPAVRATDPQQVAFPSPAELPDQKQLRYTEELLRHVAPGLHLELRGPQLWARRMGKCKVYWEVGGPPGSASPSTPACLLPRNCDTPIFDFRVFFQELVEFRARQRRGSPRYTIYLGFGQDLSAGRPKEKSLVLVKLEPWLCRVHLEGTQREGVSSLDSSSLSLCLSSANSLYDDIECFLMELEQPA
# Technique: protein-binding microarray
# Form: double-stranded DNA, one strand shown
# Medium: in vitro
# Concentration: 2200 nM top
# Setting: 60-bp whole probe
# With: salmon DNA 0.4 mg/ml
# Baseline: random background probes
# Direction: higher = stronger binding
# Shared flanks, not repeated: GCCTAGCAC … GTGCTAGGTCTTGATTCGCTTGACGCTGCTG
Sequence,fitted relative affinity [z-score]
TCAGTGATAGCTCTGGTACT,-0.2
GGGTCTCTTGTTCTCTCTGG,0.713
TTAGATATCAGTCGCGATTA,0.0154
CATTTATTTACTCTCTACAT,1.85
TCCCCTCTCTTTCCAACTCT,2.46
TCATTTCTTTGCTTCACACT,2.6
TTAGGTTTCCTTTCCATTTA,4.44
TGTAATGATGTAGGCAAATG,-0.233
